Results gathered from unrelated publications.
Each numbered part is a random draw from the data of one study; scales do not carry over between parts. Substitutions count along the parent as printed.

Sample 1
Target: Interferon regulatory factor 7, full length, phosphomimetic (IRF7, Homo sapiens, UniProt Q92985, residues 1-503, S471D/S472D/S475D/S476D/S477D/S483D/S484D/S487D)
Sequence of UniProt Q92985 (whole entry, unmodified, looked up): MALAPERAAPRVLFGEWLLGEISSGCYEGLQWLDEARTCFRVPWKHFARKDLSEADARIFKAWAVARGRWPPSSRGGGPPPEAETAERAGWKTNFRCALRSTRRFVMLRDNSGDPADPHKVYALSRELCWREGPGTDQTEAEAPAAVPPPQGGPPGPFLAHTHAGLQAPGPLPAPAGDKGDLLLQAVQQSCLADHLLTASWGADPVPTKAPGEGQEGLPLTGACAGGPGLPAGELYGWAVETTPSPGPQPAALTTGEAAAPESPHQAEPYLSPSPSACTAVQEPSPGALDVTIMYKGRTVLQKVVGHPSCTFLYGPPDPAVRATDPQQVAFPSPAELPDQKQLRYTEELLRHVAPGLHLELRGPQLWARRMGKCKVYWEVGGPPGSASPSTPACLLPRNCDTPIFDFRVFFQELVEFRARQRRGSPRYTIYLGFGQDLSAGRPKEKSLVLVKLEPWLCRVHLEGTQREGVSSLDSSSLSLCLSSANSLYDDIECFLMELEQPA
Technique: protein-binding microarray
Molecule type: double-stranded DNA, one strand shown
Sample: in vitro
Tested at: 2200 nM top
Setting: 60-bp whole probe
Added: salmon DNA 0.4 mg/ml
Reference: random background probes
Direction: higher = stronger binding
All sequences stand within: GCCTAGCAC … GTCTTGATTCGCTTGACGCTGCTG
Oligonucleotide	fitted relative affinity [z-score]
GAACCTTCCCCTCTAGGTTCGTGCTAG	2.52
GACGGATTGGACACTGGGGACGTGCTA	-0.497
TCTGTTTTTGCTTTCTTTATGTGCTAG	4.82
TTAGGTTTCTGTATCGGTTAGTGCTAG	2.64
TTAGGTATTCTACTGCTTTAGTGCTAG	0.519
GTAGGTTTCCTTATCCTTTAGTGCTAG	1.99
TCTATAATGGATATATATCAGTGCTAG	0.199
TAAGGACTGGACTATCGGTTAGTGCTA	-0.361

Sample 2
Target: CCNA2, cyclin fold, Cln2 fusion (human)
Technique: yeast growth competition, sequencing
Sample: yeast
Setting: strong parent motif
Reference: not given
Direction: higher = stronger binding
Parent: viral docking peptide; KKVKRRLFETREL; partner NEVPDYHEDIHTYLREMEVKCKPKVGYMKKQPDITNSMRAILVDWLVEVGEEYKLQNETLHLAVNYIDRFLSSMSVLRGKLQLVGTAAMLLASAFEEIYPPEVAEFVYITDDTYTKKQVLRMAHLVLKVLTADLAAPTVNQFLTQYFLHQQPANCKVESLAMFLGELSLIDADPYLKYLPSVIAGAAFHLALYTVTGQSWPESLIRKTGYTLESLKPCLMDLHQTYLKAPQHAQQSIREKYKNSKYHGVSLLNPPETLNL
Variant	normalised enrichment score
E12A	5.38
R5A	1.8
K4A	5.27
F8A	0.51
L13A	6.05
R5K	4.86
F8L	1.14
V3A	5.16
R11A	6.03
R5A L7A	0.731

Sample 3
Target: PABPC1L2, full length, GST fusion (mouse, UniProt A0ABA7IW68)
Technique: RNAcompete
Molecule type: RNA
Sample: in vitro
Tested at: 20 nM
Setting: 7-mer, probes averaged, single round
Reference: mean of 7-mers
Direction: higher = stronger binding
Residues (chain): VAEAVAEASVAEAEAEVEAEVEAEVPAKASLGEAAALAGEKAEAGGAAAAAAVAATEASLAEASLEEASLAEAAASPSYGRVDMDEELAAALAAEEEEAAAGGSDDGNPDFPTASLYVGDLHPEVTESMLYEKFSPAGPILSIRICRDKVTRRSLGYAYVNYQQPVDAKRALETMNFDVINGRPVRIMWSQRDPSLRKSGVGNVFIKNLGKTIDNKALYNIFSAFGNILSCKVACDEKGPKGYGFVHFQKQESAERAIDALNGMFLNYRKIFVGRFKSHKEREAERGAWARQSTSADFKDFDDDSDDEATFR
Oligonucleotide	7-mer Z-score
AUUAACU	-0.213
AAGUCAU	-0.0663
CGGCACA	-0.0772
GAGUAUC	-0.211
UUGCUUU	-0.289
GUUGUAU	-0.344
CAUAAAG	2.08
GCGGACC	-0.00289

Sample 4
Target: HLA class I histocompatibility antigen, A alpha chain, allele A*80:01 (Homo sapiens, UniProt P04439)
Read-out: peptide-MHC binding
Molecule type: peptide
Tested at: concentration not given
Molecule	binding
VTDTALAYF	inactive
FSDVSHWWQ	inactive
VVDALRNIY	inactive
AFDLSFFLK	inactive
FTDNNELEF	inactive

Excerpt of the above (sample 2):
Variant	normalised enrichment score
R5K	4.86
F8L	1.14
V3A	5.16
R11A	6.03
R5A L7A	0.731
